Assay results pooled from the literature.
Every numbered part comes from another study and shows a few of its results, in no order.
Sequence of UniProt Q92630 (whole entry, looked up): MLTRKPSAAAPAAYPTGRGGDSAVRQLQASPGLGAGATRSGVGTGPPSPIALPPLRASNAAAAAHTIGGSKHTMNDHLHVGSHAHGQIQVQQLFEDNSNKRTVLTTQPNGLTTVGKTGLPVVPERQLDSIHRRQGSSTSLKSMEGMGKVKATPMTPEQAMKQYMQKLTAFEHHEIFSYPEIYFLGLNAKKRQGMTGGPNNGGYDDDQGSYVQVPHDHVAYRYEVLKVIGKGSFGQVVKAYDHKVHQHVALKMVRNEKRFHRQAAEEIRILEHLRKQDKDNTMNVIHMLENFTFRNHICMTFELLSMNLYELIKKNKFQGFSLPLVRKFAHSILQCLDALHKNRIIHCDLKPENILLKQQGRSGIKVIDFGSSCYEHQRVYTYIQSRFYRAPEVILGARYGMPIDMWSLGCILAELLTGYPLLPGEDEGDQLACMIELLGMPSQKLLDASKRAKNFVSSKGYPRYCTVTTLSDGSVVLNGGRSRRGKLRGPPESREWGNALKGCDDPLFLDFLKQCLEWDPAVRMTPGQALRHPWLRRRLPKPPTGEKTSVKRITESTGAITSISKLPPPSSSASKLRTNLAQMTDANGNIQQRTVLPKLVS
Sequence of UniProt Q8IYT8 (whole entry, looked up): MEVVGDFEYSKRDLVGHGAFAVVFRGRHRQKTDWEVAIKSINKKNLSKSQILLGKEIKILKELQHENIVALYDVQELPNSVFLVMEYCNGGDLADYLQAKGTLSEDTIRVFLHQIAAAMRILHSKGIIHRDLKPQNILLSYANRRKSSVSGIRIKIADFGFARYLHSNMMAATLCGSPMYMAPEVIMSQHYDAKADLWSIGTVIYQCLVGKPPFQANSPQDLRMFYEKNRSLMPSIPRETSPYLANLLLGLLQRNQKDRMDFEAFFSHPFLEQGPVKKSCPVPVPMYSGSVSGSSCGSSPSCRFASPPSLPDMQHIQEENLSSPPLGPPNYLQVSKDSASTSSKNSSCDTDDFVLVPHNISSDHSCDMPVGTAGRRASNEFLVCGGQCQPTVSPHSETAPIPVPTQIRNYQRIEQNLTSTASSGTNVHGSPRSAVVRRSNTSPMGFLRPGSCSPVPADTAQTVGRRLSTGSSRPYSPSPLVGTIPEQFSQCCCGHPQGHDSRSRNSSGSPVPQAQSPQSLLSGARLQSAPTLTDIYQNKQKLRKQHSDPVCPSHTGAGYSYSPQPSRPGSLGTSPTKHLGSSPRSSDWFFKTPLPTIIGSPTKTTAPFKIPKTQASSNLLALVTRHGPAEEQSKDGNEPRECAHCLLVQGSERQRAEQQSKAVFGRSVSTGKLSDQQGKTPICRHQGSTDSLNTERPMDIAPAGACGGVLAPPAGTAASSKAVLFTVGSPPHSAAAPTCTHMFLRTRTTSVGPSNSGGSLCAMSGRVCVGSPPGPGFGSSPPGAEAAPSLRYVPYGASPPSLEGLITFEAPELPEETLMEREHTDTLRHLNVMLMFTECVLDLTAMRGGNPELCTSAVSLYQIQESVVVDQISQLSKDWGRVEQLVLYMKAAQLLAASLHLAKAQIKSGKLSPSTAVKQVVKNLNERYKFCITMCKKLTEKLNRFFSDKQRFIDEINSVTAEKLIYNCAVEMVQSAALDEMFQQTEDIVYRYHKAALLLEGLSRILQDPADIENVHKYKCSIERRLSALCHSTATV
Sequence of UniProt O75747 (whole entry, looked up): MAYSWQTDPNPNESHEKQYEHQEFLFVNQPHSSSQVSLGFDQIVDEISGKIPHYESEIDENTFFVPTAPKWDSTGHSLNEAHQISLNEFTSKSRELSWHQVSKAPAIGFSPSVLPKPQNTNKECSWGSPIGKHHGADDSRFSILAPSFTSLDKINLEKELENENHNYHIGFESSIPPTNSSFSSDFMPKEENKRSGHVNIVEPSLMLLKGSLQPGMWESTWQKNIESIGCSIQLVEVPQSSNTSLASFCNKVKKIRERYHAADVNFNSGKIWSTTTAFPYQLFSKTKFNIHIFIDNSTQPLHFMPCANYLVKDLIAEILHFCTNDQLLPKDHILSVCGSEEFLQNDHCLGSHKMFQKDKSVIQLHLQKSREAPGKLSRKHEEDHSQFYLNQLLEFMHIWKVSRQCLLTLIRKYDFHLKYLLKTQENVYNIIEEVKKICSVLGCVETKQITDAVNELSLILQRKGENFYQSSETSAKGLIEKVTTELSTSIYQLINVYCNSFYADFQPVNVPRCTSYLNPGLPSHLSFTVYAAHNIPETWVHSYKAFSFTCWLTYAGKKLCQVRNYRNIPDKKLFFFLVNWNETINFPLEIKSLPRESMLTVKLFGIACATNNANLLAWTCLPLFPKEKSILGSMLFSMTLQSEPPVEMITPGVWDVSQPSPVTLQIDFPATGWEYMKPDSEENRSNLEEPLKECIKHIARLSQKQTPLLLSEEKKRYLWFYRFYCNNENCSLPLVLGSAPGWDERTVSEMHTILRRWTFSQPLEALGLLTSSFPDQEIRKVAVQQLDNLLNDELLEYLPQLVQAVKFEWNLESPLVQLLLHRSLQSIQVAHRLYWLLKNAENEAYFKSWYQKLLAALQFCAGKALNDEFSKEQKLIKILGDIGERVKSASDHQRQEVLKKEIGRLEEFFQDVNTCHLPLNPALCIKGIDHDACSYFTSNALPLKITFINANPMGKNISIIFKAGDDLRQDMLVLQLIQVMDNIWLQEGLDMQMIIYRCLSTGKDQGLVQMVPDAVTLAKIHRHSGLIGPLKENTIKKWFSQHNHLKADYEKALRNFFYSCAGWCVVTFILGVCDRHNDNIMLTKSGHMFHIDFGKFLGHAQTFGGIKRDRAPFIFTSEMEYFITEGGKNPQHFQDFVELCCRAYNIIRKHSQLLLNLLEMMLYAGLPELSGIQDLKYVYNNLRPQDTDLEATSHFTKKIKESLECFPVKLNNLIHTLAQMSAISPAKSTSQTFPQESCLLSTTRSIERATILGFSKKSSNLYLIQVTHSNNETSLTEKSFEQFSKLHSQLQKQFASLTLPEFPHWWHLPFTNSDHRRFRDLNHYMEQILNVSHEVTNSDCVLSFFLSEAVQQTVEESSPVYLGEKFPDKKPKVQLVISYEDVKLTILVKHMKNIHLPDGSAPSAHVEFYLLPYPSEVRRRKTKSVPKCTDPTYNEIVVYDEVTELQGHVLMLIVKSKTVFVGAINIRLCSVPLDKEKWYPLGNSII

Set 1
Structure (SMILES): C=CCc1ccc(O)c(-c2cc(CC=C)ccc2O)c1
Read-out: chloride current
Technique: inside-out patch clamp
Tested at: 30 µM
ANO1 del476-501/E649A/R541A: Anoctamin-1 (ANO1, Homo sapiens, UniProt Q5XXA6, del476-501/E649A/R541A)
Sequence of UniProt Q5XXA6 (whole entry, unmodified, looked up): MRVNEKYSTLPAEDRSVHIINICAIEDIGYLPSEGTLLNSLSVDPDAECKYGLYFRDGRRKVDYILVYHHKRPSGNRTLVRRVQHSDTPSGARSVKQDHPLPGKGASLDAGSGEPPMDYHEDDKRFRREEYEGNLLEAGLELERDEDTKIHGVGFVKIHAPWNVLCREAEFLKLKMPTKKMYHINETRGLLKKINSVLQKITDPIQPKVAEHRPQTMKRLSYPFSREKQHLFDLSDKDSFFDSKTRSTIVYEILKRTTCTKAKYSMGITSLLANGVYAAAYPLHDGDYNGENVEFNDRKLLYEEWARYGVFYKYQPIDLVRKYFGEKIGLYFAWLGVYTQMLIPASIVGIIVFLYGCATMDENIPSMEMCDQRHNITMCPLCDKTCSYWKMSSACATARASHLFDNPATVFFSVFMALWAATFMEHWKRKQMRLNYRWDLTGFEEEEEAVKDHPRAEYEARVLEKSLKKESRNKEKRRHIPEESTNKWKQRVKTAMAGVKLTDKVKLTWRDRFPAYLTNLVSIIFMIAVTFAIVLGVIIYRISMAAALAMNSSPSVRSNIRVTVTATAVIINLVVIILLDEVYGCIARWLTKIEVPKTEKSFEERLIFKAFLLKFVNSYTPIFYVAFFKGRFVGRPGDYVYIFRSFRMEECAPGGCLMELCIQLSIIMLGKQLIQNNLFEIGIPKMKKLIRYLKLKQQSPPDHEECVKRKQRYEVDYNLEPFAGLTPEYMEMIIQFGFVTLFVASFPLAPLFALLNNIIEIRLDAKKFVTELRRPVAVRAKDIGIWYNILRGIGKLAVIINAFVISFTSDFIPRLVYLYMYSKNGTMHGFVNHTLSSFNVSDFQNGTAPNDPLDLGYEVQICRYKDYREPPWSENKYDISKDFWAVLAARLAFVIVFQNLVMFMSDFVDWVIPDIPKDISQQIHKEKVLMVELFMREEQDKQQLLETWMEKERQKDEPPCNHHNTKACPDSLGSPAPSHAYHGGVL
target | setting | normalized current
ANO1 del476-501/E649A/R541A | membrane voltage 80 mV | 0.541
Anoctamin-1 (ANO1, Homo sapiens, UniProt Q5XXA6, del476-501/R541A) | membrane voltage 100 mV | 0.752
TMEM16A (human) K603A/E623A | membrane voltage 40 mV | 0.185
Anoctamin-1 (ANO1, Homo sapiens, UniProt Q5XXA6, del476-501/K629A) | membrane voltage -60 mV | -0.355
ANO1 del476-501/E649A/R541A | membrane voltage 60 mV | 0.349

Set 2
Structure (SMILES): CO[C@@H](C)c1c(Nc2ccc([C@@H](N(C)C(=O)C3CCS(=O)(=O)CC3)C(F)(F)F)cc2)cnc2cc(Cl)nn12
Technique: competition with immobilised ligand
Tested at: 1 µM
target | assay | remaining binding [%]
PIK3CA (Homo sapiens, UniProt P42336, M1043I) | cell-free assay | 100
PIKFYVE (Homo sapiens, UniProt Q9Y2I7) | cell-free assay | 65
Myosin-IIIa (MYO3A, Homo sapiens, UniProt Q8NEV4) | cell-free assay | 100
DYRK2 (Homo sapiens, UniProt Q92630) | cell-free assay | 95
ULK2 (Homo sapiens, UniProt Q8IYT8) | cell-free assay | 92
PIK3C2G (Homo sapiens, UniProt O75747) | cell-free assay | 88
BMPR2 (Homo sapiens, UniProt Q13873) | cell-free assay | 84
MAP3K4 (Homo sapiens, UniProt Q9Y6R4) | cell-free assay | 89
EGFR (Homo sapiens, UniProt P00533, G719C) | cell-free assay | 98
MAST1 (Homo sapiens, UniProt Q9Y2H9) | binding | 29
PTK2B (Homo sapiens, UniProt Q14289) | cell-free assay | 100
NUAK1 (Homo sapiens, UniProt O60285) | cell-free assay | 99
IRAK1 (Homo sapiens, UniProt P51617) | cell-free assay | 82
CDK17 (Homo sapiens, UniProt Q00537) | cell-free assay | 100
SGK2 (Homo sapiens, UniProt Q9HBY8) | cell-free assay | 99

Set 3
Target: Diamine acetyltransferase 1 (Homo sapiens, UniProt P21673)
Action: inhibitor
Tested at: 10 µM
Reference: control
Residues (P21673 1-171): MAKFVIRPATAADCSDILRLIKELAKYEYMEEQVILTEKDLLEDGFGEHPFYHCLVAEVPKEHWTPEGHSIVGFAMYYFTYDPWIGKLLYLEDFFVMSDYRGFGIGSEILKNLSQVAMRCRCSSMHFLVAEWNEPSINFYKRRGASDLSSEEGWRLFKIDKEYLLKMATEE
SMILES | remaining activity
CC1=C(C=O)C(C)(C)CCC1 | 88.3%
Cc1cc(Cc2cc(C)cc(C(C)(C)C)c2O)c(O)c(C(C)(C)C)c1 | 100%
O=Cc1c[nH]c2ccccc12 | 87.6%
C=C1C[C@@]23CC[C@H]4[C@@](C)(CCC[C@@]4(C)C(=O)O[C@@H]4O[C@H](CO)[C@@H](O)[C@H](O)[C@H]4O)[C@@H]2CC[C@]1(O[C@@H]1O[C@H](CO)[C@@H](O)[C@H](O)[C@H]1O)C3 | 96.8%
CC1(C)CC[C@]2(C(=O)O)CC[C@]3(C)C(=CC[C@@H]4[C@@]5(C)CC[C@H](O)[C@@](C)(CO)[C@@H]5CC[C@]43C)[C@@H]2C1 | 97.9%

Set 4
Target: Ribosomal protein S6 kinase alpha-5 (RPS6KA5, Homo sapiens, UniProt O75582)
Sequence of UniProt O75582 (whole entry, looked up): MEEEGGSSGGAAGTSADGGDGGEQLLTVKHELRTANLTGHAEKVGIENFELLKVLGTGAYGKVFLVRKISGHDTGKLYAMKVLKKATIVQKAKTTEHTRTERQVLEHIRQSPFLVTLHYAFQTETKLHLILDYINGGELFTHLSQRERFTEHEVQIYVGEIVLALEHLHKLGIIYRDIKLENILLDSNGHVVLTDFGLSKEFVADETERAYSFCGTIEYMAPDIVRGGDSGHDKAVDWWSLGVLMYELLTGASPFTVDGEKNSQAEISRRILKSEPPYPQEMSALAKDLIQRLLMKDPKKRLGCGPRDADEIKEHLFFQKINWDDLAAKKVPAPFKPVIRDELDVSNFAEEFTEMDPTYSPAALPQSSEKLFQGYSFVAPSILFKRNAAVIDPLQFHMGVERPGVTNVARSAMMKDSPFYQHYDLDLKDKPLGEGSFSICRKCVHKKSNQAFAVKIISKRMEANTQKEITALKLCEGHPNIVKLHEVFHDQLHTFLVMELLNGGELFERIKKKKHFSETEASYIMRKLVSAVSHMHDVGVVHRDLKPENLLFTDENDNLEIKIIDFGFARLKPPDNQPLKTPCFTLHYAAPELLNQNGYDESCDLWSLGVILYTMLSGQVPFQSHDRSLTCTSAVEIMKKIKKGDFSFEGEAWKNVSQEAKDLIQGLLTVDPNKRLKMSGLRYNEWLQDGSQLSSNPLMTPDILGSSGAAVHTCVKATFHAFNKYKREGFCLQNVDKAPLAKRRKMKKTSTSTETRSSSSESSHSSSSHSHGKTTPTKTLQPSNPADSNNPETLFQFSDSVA
Read-out: enzyme activity
Action: inhibitor
Tested at: 0.5 µM
Reference: control
Structure (SMILES) | remaining activity
O=C(O)/C=C/c1cc(Br)c(Br)c(Br)c1Br | 88.3%
NC(=O)c1cccc(-c2cc(Nc3ccc(OC(F)(F)F)cc3)ncn2)c1 | 104%
CC(C)n1cnc2c(Nc3cccc(Cl)c3)nc(NCCO)nc21 | 87%
O=Nc1c(-c2c(O)[nH]c3ccccc23)[nH]c2ccccc12 | 67%
O=C(c1ccccc1)c1ccc(N2CCOCC2)cc1O | 102%
NC(=O)c1ccc(-c2nc(-c3ccc4c(c3)OCCO4)c(-c3ccccn3)[nH]2)cc1 | 97.4%
CNc1cc2c(Nc3cccc(Br)c3)ncnc2cn1 | 92.3%
CC(C)(C)c1nc2c3cc[nH]c(=O)c3c3cc(F)ccc3c2[nH]1 | 58%

A few entries again (set 2):
target | assay | remaining binding [%]
BMPR2 (Homo sapiens, UniProt Q13873) | cell-free assay | 84
SGK2 (Homo sapiens, UniProt Q9HBY8) | cell-free assay | 99
Myosin-IIIa (MYO3A, Homo sapiens, UniProt Q8NEV4) | cell-free assay | 100
